Published values collected from several papers.
“And” joins repeats or separate records; there may be more than shown.
Target: Protein kinase C delta type (PRKCD, Homo sapiens, UniProt Q05655)

With `CNC1C[S+]2CC[S+]3CC[S+](C1)[Ru-4]321([N]=C=S)[n]2c3ccc(OC)cc3c3c4c(c5cc(F)c[n+]1c5c32)C(=O)NC4=O` (centres unmarked) the remaining binding was 53% (KinomeScan; 0.1 µM; baseline: untreated).
The remaining activity of `COCC12C(=O)NC3C4(C(OC)CC1O)C1CC5(O)C(OC)C(O)C(OC(C)=O)(C1C5OC(=O)c1ccccc1)C3(O)C(OC)C24` (centres unmarked) is reported as 107% and 105% (kinase activity, inhibitor, ProQinase kinase profiling; 25 µM; baseline: control).
`CNC(=O)C1CCN(c2cc(C)c(F)cc2NC(=O)c2ccc(-c3cc(O)ccc3C)c(C)c2)CC1` gave a remaining binding of 100% (binding, competition with immobilised ligand; 1 µM).
`O=c1c(-c2ccc(Cl)c(CN3CCOCC3)c2)coc2cc(O)ccc12` gave a remaining activity of 114% (enzyme activity, inhibitor; 1 µM).
The remaining binding of `Cc1ccc(-c2c(/C=C(\C#N)C(=O)NC(C)C)n(CCCO)c3ncnc(N)c23)cc1` is reported as 100% (cell-free assay, competition with immobilised ligand; 1 µM).
For `CN1CCN(Cc2ccc(-c3ccc(CO[C@H]4CCC[C@@H]4NC(=O)c4cc(-c5cnn(C)c5)cnc4N)cc3)cc2)CC1`, the inhibition was -4% (enzyme activity, inhibitor; 0.1 µM).
The inhibition of `C=CC(=O)N1Cc2nc(-c3cc(-c4cc(Cl)cnc4Cl)c(F)cc3F)n(-c3ccncn3)c2C1` is reported as 14.9% (cell-free assay; 1 µM).
The remaining binding of `CCN1CCN(Cc2ccc(C(=O)Nc3ccc(C)c(NCc4cnc5[nH]ccc5c4OC)c3)cc2C(F)(F)F)CC1` is reported as 51% (binding, competition with immobilised ligand; 1 µM).
Under “activity vs control”, `O=C(Cc1ccc(OCc2ccccc2)cc1)NC1(C(=O)O)CCN(C(=O)c2ccc(-c3cccc(Cl)c3)cc2)CC1` is recorded as 102% (enzyme activity, inhibitor; 10 µM).
With `Nc1ncc2c(n1)-c1c([nH]c3ccc(C4=CCOCC4)cc13)CCC2` the remaining binding was 100% (binding, competition with immobilised ligand; 1 µM).
With `COc1ccc(NC(=O)Nc2ccc3c(c2)C(=O)N(C(C)CO)CC(C)C(CN(C)Cc2ccc4c(c2)OCO4)O3)cc1` (centres unmarked) the remaining activity was 105% (kinase activity, KinaseProfiler; 0.03 µM, species human; baseline: control).
Under “activity vs control”, `CNC(=O)C[C@H](Cc1ccc(C#N)cc1)NC(=O)c1cc(-c2ccc(CN[C@H](C)c3ccc(C)cc3)o2)ccc1Cl` is recorded as 107% (enzyme activity, inhibitor; 1 µM).
`NC(=O)[C@@H](O)C[C@H]1CCc2sc3ncnc(O[C@H]4CC[C@H](N5CCOCC5)CC4)c3c21` gave an inhibition of 3% (enzyme activity, inhibitor; 10 µM).
`COc1cc(Nc2nccc(-c3cnn4nc(OC)ccc34)n2)cc(C(F)(F)F)c1` has a remaining binding of 91% (binding, competition with immobilised ligand; 1 µM).

A few entries again:
For `CN1CCN(Cc2ccc(-c3ccc(CO[C@H]4CCC[C@@H]4NC(=O)c4cc(-c5cnn(C)c5)cnc4N)cc3)cc2)CC1`, the inhibition was -4% (enzyme activity, inhibitor; 0.1 µM).
Under “activity vs control”, `O=C(Cc1ccc(OCc2ccccc2)cc1)NC1(C(=O)O)CCN(C(=O)c2ccc(-c3cccc(Cl)c3)cc2)CC1` is recorded as 102% (enzyme activity, inhibitor; 10 µM).
